Published values from different studies.
Compare with care: the assays were run in different laboratories. ± gives the spread as reported.

| Compound | target or system | assay | test system | setting | measurement | value |
| --- | --- | --- | --- | --- | --- | --- |
| CC[C@H](C)[C@H](N)C(=O)N[C@@H](CCCNC(=N)N)C(=O)N[C@H](C(=O)N[C@@H](Cc1c[nH]c2ccccc12)C(=O)N[C@@H](Cc1ccccc1)C(=O)N[C@H](C(=O)N[C@@H](CCCCN)C(=O)N[C@H](C(=O)N[C@@H](CCCNC(=N)N)C(=O)N[C@@H](CCCCN)C(=O)N[C@@H](CCSC)C(=O)N[C@@H](CCCCN)C(=O)N[C@@H](C)C(=O)N[C@H](C(=O)N[C@@H](Cc1ccc(O)cc1)C(=O)N[C@@H](Cc1c[nH]cn1)C(N)=O)[C@@H](C)CC)C(C)C)[C@@H](C)CC)C(C)C | Enterobacter sp. | broth dilution | KCTC 2625 | – | MIC | 50 µM |
| CC1(C)S[C@@H]2[C@H](NC(=O)[C@H](NC(=O)C3=C(O)C(c4ccccc4F)NC3=O)c3ccccc3)C(=O)N2[C@H]1C(=O)O (stereo partly shown) | Escherichia coli | broth microdilution | Keio mutant JW2142-1 | – | MIC | 50 µg/mL |
| CC[C@H](C)[C@H](N)C(=O)N[C@@H](CCCNC(=N)N)C(=O)N[C@H](C(=O)N[C@@H](Cc1c[nH]c2ccccc12)C(=O)N[C@@H](CCCCN)C(=O)N[C@@H](CCCCN)C(=O)N[C@H](C(=O)N[C@H](C(=O)N[C@@H](CCCNC(=N)N)C(=O)N[C@@H](CCCCN)C(=O)N[C@@H](Cc1c[nH]c2ccccc12)C(=O)N[C@@H](CCCCN)C(=O)N[C@@H](C)C(=O)N[C@H](C(=O)N[C@@H](Cc1c[nH]c2ccccc12)C(=O)N[C@@H](Cc1c[nH]cn1)C(N)=O)[C@@H](C)CC)C(C)C)[C@@H](C)CC)C(C)C | Enterobacter sp. | broth dilution | KCTC 2625 | – | MIC | < 3.1 µM |
| COc1ccc(C2=[N+]([O-])c3ccccc3N3CC(C)(C)CN=C23)cc1 | Clostridioides difficile | – | – | – | MIC | 1 to 8 µg/mL |
| CC[C@H](C)[C@H](NC(=O)[C@H](C)NC(=O)[C@@H](NC(=O)[C@H](CC(=O)O)NC(=O)[C@H](CCCCN)NC(=O)[C@H](CO)NC(=O)[C@@H](NC(=O)[C@H](CC(N)=O)NC(=O)[C@H](C)NC(=O)[C@@H](NC(=O)[C@H](CCC(=O)O)NC(=O)[C@H](CCCCN)NC(=O)[C@@H](NC(=O)[C@@H](NC(=O)[C@H](Cc1c[nH]cn1)NC(=O)[C@H](CCCCN)NC(=O)[C@@H](NC(=O)[C@H](CCCCN)NC(=O)[C@H](CCCCN)NC(=O)[C@@H](NC(=O)[C@H](CC(C)C)NC(=O)[C@H](CCCCN)NC(=O)[C@H](CC(N)=O)NC(=O)[C@H](Cc1ccccc1)NC(=O)[C@H](CCCNC(=N)N)NC(=O)[C@H](CCCCN)NC(=O)[C@H](CCCNC(=N)N)NC(=O)[C@H](Cc1ccccc1)NC(=O)CN)C(C)C)C(C)C)[C@@H](C)O)[C@@H](C)CC)[C@@H](C)O)C(C)C)C(C)C)C(=O)N[C@H](C(=O)N[C@@H](C)C(=O)NCC(=O)N[C@@H](CO)C(=O)NCC(=O)N[C@H](C(=O)N[C@@H](C)C(=O)N[C@H](C(=O)NCC(=O)N[C@@H](C)C(=O)N[C@@H](C)C(=O)N[C@@H](CCSC)C(N)=O)C(C)C)C(C)C)C(C)C | Proteus mirabilis | – | DSM 4479, CAMHB | – | MIC | > 1020 µg/mL |
| [O-][N+]1=C(Cc2ccccc2)C2=NCCCN2c2ccccc21 | Clostridioides difficile | – | – | – | MIC | 8 to 32 µg/mL |
| c1ccc(CCNC2CCCc3c2[nH]c2ccc(C4CCCCC4)cc32)cc1 (stereo not shown) | Streptococcus pneumoniae | broth microdilution | serotype 19A 700678, supplemented C+Y medium | – | MIC | 1.3 µg/mL |
| CC[C@H](C)[C@@H]1NC(=O)[C@H](CCCNC(=N)N)NC(=O)[C@H]([C@@H](C)O)NC(=O)[C@H](C(C)C)NC(=O)[C@H](Cc2ccccc2)NC(=O)[C@H](C(C)C)NC(=O)[C@H](CCCNC(=N)N)NC(=O)[C@H](CCCNC(=N)N)NC(=O)[C@H](CCCNC(=N)N)NC(=O)[C@H](Cc2ccccc2)NC(=O)CNC(=O)[C@H](CCCCN)NC(=O)[C@@H](NC(=O)[C@H](CCCNC(=N)N)NC(=O)CNC(=O)CN)CSSC[C@@H](C(N)=O)NC1=O | Botrytis cinerea | resazurin | synthetic fungal medium | added: CaCl2 2 mM | MIC | > 6 µM |
| CCCCCCCC(=O)NCCCC[C@H](NC(=O)CCCCCCC)C(=O)N[C@@H](CCCCNC(=O)CCCCCCC)C(=O)NCC(=O)NCC(=O)NCC(=O)N[C@@H](CS)C(=O)N[C@@H](CCCNC(=N)N)C(=O)N[C@@H](CCCCN)C(=O)N1CCC[C@H]1C(=O)N[C@@H](CS)C(=O)N[C@@H](CCCNC(=N)N)C(=O)N[C@@H](CCCCN)C(=O)N1CCC[C@H]1C(N)=O | Candida tropicalis | broth microdilution | CGMCC 2.197, RPMI-1640 | 48 h, 30 °C | MIC | 4 µM |
| CC[C@H](C)[C@@H]1NC(=O)[C@@H]2CCCN2C(=O)[C@H](C)NC(=O)[C@H](CC(C)C)NC(=O)[C@@H]2CCCN2C(=O)[C@H](C)NC(=O)[C@@H]2CSSC[C@H](NC(=O)[C@H](C)NC(=O)[C@H](C)NC(=O)[C@H](Cc3ccc(O)cc3)NC(=O)[C@@H]3CCCN3C(=O)CNC(=O)[C@H](Cc3c[nH]c4ccccc34)NC1=O)C(=O)N[C@@H](CC(C)C)C(=O)N[C@@H](CO)C(=O)N[C@@H](C)C(=O)N[C@H]1CSSC[C@H](NC(=O)[C@H](C(C)C)NC(=O)[C@@H]3CCCN3C(=O)CNC(=O)CNC(=O)CNC(=O)[C@H](C)NC(=O)[C@H](C)NC(=O)[C@H](CC(C)C)NC1=O)C(=O)N[C@@H](CC(C)C)C(=O)N[C@@H](C)C(=O)N[C@@H](C(C)C)C(=O)N2 | Salmonella typhimurium | – | ATCC 14028 | – | MIC | > 128 µg/mL |
| CC[C@H](C)[C@@H]1NC(=O)[C@H](CO)NC(=O)C(C)(CCCCN)NC(=O)[C@@H]2CSSC[C@@H](C(=O)N[C@@H](Cc3ccc(O)cc3)C(N)=O)NC(=O)[C@H](CCCCN)NC(=O)[C@@H]3CSSC[C@H](NC(=O)[C@H](CCCNC(=N)N)NC(=O)C(C)(CC(C)C)NC(=O)[C@H](CC(=O)O)NC(=O)[C@H](CC(=O)O)NC(=O)[C@H](CCC(=O)O)NC(=O)[C@H](CC(N)=O)NC(=O)[C@H](Cc4c[nH]c5ccccc45)NC(=O)[C@@H]4CCCN4C(=O)CNC(=O)[C@H](CC(N)=O)NC(=O)[C@@H](NC(=O)CNC(=O)[C@H](Cc4ccccc4)NC(=O)CN)CSSC[C@H](NC(=O)[C@H](Cc4ccc(O)cc4)NC(=O)CNC(=O)CNC(=O)[C@H](CCCCN)NC(=O)[C@H](Cc4ccc(O)cc4)NC(=O)CNC(=O)[C@H](CCCCN)NC1=O)C(=O)N[C@@H](C)C(=O)N[C@@H](CCCCN)C(=O)NCC(=O)NCC(=O)N[C@@H](Cc1ccccc1)C(=O)N[C@@H](C(C)C)C(=O)N3)C(=O)N[C@@H](Cc1c[nH]cn1)C(=O)NC(C)(C)C(=O)N[C@@H](Cc1c[nH]cn1)C(=O)N2 (stereo partly shown) | Streptococcus pneumoniae | broth microdilution | BS-442 | 18 h | MIC | 0.5 µM |
| [O-][N+]1=C(c2ccc(Cl)cc2)C2=NCCCN2c2ccccc21 | Clostridioides difficile | – | – | – | MIC | 8 to 16 µg/mL |
| O=C1NC2(CC2)COc2ncc(F)cc2[C@H]2COCCN2c2ccn3ncc1c3n2 | – | – | Sprague-Dawley rat, female, serum | oral, 20 mg/kg/day, end of recovery, 4-week repeated-dose toxicity | albumin | 44.8 ± 3.4 g/L |
| CC[C@H](C)[C@H](NC(=O)[C@H](CCCNC(=N)N)NC(=O)[C@H](CO)NC(=O)[C@H](Cc1ccc(O)cc1)NC(=O)[C@@H](NC(=O)[C@@H](NC(=O)[C@H](C)NC(=O)CNC(=O)[C@H](CCCCN)NC(=O)[C@H](CCCCN)NC(=O)CCNC(=O)CCCCCNC(=O)[C@H](CCCNC(=N)N)NC(=O)CCCCCNC(=O)[C@H](CCCNC(=N)N)NC(=O)[C@H](CCCNC(=N)N)NC(=O)CCCCCNC(=O)[C@H](CCCNC(=N)N)NC(=O)[C@H](CCCNC(=N)N)NC(=O)CCCCCNC(=O)[C@H](CCCNC(=N)N)NC(=O)[C@H](CCCNC(=N)N)NC(=O)CCCCCNC(=O)[C@@H](N)CCCNC(=N)N)C(C)C)[C@@H](C)O)C(=O)N[C@@H](CO)C(=O)NCC(=O)N[C@@H](CCC(N)=O)C(=O)N[C@@H](Cc1ccc(O)cc1)C(=O)N[C@@H](CCCCN)C(=O)O | Escherichia coli | – | ATCC 25922 | 1 h, 37 °C, after 50% fetal bovine serum | MIC | 24 µM |
| OB(O)c1ccc(OCc2ccccc2)nc1F | Citrobacter freundii | bacterial growth | AmpC overproducer clinical isolate | without cefotaxime | MIC | > 2050 µg/mL |
| CC[C@H](C)[C@H](NC(=O)[C@H](Cc1c[nH]c2ccccc12)NC(=O)[C@H](Cc1ccc(O)cc1)NC(=O)[C@H](CCCCN)NC(=O)[C@H](CC(C)C)NC(=O)[C@H](CO)NC(=O)[C@@H](N)Cc1ccccc1)C(=O)N[C@@H](CCCNC(=N)N)C(=O)N[C@@H](Cc1ccc(O)cc1)C(=O)N[C@@H](CCCCN)C(=O)N[C@@H](CCCNC(=N)N)C(=O)N[C@@H](CCC(N)=O)C(=O)NCC(=O)N[C@@H](C)C(=O)N[C@@H](C)C(=O)N[C@@H](CCCNC(=N)N)C(=O)N[C@@H](Cc1ccccc1)C(N)=O | Enterobacter sp. | broth dilution | KCTC 2625 | – | MIC | < 3.1 µM |
| CC[C@H](C)[C@H](NC(=O)[C@H](C)NC(=O)CNC(=O)[C@H](C)NC(=O)[C@H](CCCCN)NC(=O)[C@H](CO)NC(=O)[C@H](C)NC(=O)[C@H](CCSC)NC(=O)CN)C(=O)N[C@@H](C)C(=O)NCC(=O)N[C@@H](CCCCN)C(=O)N[C@H](C(=O)N[C@@H](C)C(=O)N[C@@H](CCCCN)C(=O)N[C@H](C(=O)N[C@@H](C)C(=O)N[C@@H](CC(C)C)C(=O)N[C@@H](CCCCN)C(=O)N[C@@H](C)C(=O)N[C@@H](CC(C)C)C(N)=O)C(C)C)[C@@H](C)CC | Escherichia coli | – | CFT073 ampicillin-resistant | 18 h, 37 °C, minimal salts medium | MIC | 2.5 µg/mL |
| CCCC(C)Oc1cccc(NC(=O)c2cccnc2)c1 (stereo not shown) | Saccharomyces cerevisiae | – | S288c wild type | – | MIC | 32 µg/mL |
| CC[C@H](C)[C@H](NC(=O)[C@H](CCCCN)NC(=O)[C@H](CCCCN)NC(=O)[C@H](Cc1ccccc1)NC(=O)[C@H](Cc1ccccc1)NC(=O)[C@H](CCCCN)NC(=O)[C@H](CCCCN)NC(=O)[C@H](Cc1ccccc1)NC(=O)[C@H](CCCNC(=N)N)NC(=O)[C@@H](N)CCCCN)C(=O)N[C@@H](CCCCN)C(=O)N[C@@H](CCCCN)C(=O)N[C@@H](CO)C(=O)N[C@H](C(=O)N[C@@H](CCCCN)C(=O)N[C@@H](CCCCN)C(=O)N[C@@H](CCCNC(=N)N)C(=O)N[C@H](C(=O)N[C@@H](CCCCN)C(=O)N[C@@H](CCCCN)C(=O)N[C@@H](CC(C)C)C(=O)N[C@@H](Cc1ccccc1)C(=O)N[C@@H](CCCCN)C(=O)N[C@@H](CCCCN)C(=O)N1CCC[C@H]1C(=O)N[C@@H](CCCNC(=N)N)C(=O)N[C@H](C(=O)N[C@H](C(=O)N1CCC[C@H]1C(=O)N[C@H](C(=O)N[C@@H](CO)C(=O)N[C@H](C(=O)N1CCC[C@H]1C(=O)N[C@@H](Cc1ccccc1)C(=O)O)[C@@H](C)CC)[C@@H](C)CC)[C@@H](C)CC)C(C)C)C(C)C)C(C)C | Escherichia coli | CLSI agar dilution | ATCC 25922 | 20 h, 37 °C | MIC | 8 µg/mL |

Some of these lines once more:
| Compound | target or system | assay | test system | setting | measurement | value |
| --- | --- | --- | --- | --- | --- | --- |
| OB(O)c1ccc(OCc2ccccc2)nc1F | Citrobacter freundii | bacterial growth | AmpC overproducer clinical isolate | without cefotaxime | MIC | > 2050 µg/mL |
